{"data": "Measurements of several laboratories", "CHRM5": "Muscarinic acetylcholine receptor M5 (CHRM5, Homo sapiens, UniProt P08912)", "NTSR1": "Neurotensin receptor type 1 (NTSR1, Homo sapiens, UniProt P30989)", "TDP1": "Tyrosyl-DNA phosphodiesterase 1 (TDP1, Homo sapiens, UniProt Q9NUW8)", "note": "Protocols differ between the studies behind these lines. Numbers after ± are the reported error.", "sequence of UniProt P08912 (whole entry, looked up)": "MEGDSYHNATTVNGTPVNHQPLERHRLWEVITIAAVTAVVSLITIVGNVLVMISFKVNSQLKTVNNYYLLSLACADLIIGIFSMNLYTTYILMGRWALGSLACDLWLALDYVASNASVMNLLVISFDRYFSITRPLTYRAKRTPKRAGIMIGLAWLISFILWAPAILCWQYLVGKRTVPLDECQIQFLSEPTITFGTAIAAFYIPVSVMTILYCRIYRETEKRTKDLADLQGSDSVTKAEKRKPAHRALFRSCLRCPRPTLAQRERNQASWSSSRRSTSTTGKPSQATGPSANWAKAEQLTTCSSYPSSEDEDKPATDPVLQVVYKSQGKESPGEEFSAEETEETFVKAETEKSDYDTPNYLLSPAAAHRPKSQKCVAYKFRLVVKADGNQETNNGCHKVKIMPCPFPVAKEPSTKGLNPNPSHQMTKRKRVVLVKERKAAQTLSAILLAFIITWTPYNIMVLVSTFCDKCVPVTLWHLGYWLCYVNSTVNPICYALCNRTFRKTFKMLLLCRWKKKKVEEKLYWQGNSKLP", "sequence of UniProt Q9NUW8 (whole entry, looked up)": "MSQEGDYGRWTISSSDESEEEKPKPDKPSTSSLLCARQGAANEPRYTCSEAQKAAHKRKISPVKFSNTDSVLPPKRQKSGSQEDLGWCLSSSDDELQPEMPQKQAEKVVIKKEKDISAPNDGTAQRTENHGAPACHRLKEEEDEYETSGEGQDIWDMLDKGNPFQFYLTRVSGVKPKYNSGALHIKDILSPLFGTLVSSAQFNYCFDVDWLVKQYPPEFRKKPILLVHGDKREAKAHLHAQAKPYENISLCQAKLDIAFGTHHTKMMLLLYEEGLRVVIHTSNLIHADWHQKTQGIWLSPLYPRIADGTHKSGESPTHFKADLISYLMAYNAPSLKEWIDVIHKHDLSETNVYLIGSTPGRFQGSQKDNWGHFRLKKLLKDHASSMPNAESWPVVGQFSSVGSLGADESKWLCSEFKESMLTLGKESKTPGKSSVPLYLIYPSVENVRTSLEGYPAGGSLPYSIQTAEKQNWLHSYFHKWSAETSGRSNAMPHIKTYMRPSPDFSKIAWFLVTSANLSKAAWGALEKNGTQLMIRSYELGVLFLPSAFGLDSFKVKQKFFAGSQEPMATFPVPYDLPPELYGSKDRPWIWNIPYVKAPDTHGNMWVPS", "sequence of UniProt P30989 (whole entry, looked up)": "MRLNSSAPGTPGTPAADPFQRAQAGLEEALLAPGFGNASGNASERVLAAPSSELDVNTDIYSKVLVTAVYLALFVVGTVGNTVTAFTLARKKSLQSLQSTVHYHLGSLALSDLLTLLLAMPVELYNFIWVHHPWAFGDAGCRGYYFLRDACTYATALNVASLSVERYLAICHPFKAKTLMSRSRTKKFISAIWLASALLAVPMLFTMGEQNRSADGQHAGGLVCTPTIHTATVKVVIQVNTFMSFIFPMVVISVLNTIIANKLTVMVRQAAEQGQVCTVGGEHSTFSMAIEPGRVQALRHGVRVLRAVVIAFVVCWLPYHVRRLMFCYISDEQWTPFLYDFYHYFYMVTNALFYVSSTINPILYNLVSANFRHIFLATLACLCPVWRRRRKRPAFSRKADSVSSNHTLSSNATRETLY", "sequence of UniProt O09047 (whole entry, looked up)": "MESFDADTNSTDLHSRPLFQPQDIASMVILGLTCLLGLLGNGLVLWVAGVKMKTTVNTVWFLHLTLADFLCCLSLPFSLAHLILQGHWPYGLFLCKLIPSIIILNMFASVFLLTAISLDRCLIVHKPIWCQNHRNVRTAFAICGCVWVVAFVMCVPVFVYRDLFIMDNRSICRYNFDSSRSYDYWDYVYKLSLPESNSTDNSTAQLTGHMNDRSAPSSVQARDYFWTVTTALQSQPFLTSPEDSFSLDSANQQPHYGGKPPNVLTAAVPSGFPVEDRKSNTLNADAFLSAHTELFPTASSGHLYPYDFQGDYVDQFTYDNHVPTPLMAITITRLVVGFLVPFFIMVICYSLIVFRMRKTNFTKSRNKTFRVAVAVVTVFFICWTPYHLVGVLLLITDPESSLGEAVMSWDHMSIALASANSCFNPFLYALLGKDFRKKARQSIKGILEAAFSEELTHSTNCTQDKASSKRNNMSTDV", "sequence of UniProt Q9NSD7 (whole entry, unmodified, looked up)": "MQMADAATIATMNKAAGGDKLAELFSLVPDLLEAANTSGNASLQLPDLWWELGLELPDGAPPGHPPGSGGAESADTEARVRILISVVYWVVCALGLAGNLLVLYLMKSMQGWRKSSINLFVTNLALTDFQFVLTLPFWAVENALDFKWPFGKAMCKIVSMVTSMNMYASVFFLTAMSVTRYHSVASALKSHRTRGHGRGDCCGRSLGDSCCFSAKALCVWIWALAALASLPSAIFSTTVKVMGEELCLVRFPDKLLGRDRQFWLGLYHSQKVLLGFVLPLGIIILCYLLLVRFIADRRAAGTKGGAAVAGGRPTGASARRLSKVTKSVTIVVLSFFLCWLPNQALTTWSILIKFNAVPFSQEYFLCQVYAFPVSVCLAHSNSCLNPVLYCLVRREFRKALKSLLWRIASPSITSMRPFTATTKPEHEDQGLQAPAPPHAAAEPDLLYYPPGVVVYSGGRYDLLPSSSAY", "sequence of UniProt P24530 (whole entry, looked up)": "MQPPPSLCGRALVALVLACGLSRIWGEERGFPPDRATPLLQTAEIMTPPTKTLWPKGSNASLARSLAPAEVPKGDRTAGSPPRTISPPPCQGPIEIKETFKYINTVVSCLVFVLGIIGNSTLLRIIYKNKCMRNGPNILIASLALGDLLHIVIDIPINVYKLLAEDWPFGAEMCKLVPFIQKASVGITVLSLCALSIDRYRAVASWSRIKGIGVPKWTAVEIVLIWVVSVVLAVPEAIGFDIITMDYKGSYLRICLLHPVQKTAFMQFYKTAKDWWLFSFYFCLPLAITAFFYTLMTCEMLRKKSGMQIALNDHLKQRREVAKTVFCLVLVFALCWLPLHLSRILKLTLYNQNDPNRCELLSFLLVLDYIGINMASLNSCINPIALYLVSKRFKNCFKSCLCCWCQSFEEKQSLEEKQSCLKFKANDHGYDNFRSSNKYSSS", "sequence of UniProt Q969F8 (whole entry, unmodified, looked up)": "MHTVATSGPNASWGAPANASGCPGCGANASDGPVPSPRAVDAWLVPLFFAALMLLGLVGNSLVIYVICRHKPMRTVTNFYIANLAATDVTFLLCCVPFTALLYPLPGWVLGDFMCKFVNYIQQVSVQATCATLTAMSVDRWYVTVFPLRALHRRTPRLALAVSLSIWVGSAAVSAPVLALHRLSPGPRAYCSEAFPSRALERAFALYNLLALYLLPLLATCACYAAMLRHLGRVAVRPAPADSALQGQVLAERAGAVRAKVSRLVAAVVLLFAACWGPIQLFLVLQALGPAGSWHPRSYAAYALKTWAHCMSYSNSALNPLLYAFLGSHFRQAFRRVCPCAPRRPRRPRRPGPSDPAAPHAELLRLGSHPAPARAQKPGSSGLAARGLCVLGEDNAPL"}
{"Structure (SMILES)": "CCCCOc1ccc(C(=O)OCCN2CC=CCC2)cc1", "target": "CHRM5", "test system": "membranes", "setting": "100 µM, 15 h, together with: carbachol", "how to read": "relative to: control", "endpoint": "Emax", "value": "1.69 ± 0.07 fold"}
{"Structure (SMILES)": "CCCC[C@H](NC(=O)[C@H](CC(C)C)NC(=O)[C@H](CO)NC(=O)[C@H](CO)NC(=O)[C@H](C)NC(=O)[C@H](CO)NC(=O)[C@H](C)N)C(=O)N[C@@H](CC(=O)O)C(=O)N[C@@H](CCCCN)C(=O)N[C@@H](CCC(=O)O)C(=O)N[C@@H](C)C(=O)N[C@H](C(=O)N[C@@H](Cc1ccc(O)cc1)C(=O)N[C@@H](Cc1ccccc1)C(=O)N[C@@H](C)C(=O)N[C@@H](Cc1c[nH]cn1)C(=O)N[C@@H](CC(C)C)C(=O)N[C@@H](CC(=O)O)C(=O)N[C@H](C(=O)N[C@H](C(=O)N[C@@H](Cc1c[nH]c2ccccc12)C(=O)O)[C@@H](C)CC)[C@@H](C)CC)C(C)C", "target": "EDNRB (Homo sapiens, UniProt P24530)", "test": "agonist", "test system": "HEK293", "setting": "ETBR/ETAR ratio 1:0.75", "endpoint": "Emax", "value": "76 ± 5%"}
{"Structure (SMILES)": "COc1ccccc1C1CCN(c2nc(C3CC3)nc3c(C)cc(N(C)CCO)cc23)CC1", "target": "NTSR1", "test": "β-arrestin recruitment, agonist", "test system": "HEK-293T", "endpoint": "Emax", "value": "89.6%"}
{"Structure (SMILES)": "CCCCCCOc1ccc(C(=O)OCCN2CC=CCC2)cc1", "target": "CHRM5", "test system": "membranes", "setting": "1 µM, 15 h, together with: carbachol", "how to read": "relative to: control", "endpoint": "Emax", "value": "1.47 ± 0.09 fold"}
{"Structure (SMILES)": "CNC(=N)NCCC[C@H](NC(=O)[C@H](CC(C)C)NC(=O)NNC(=O)[C@H](Cc1ccccc1)NC(=O)[C@@H](NC(=O)[C@H](CC(N)=O)NC(=O)[C@@H]1C[C@@H](O)CN1C(=O)[C@@H](Cc1ccc(O)cc1)NC(C)=O)[C@@H](C)O)C(=O)N[C@@H](Cc1c[nH]c2ccccc12)C(N)=O", "target": "KiSS-1 receptor (KISS1R, Homo sapiens, UniProt Q969F8, T99A)", "test": "inositol phosphate, agonist", "test system": "HEK293", "endpoint": "Emax", "value": "93.9%"}
{"Structure (SMILES)": "CC(=O)Oc1ccc2ccccc2c1C=NOCc1ccc2nc(-c3ccccc3)c(Nc3ccc(C(=O)O)cc3)n2c1 (mixture of isomers)", "target": "TDP1", "test": "enzyme activity, inhibitor", "setting": "100 µM, unpurified compound", "endpoint": "inhibition", "value": "45.4%"}
{"Structure (SMILES)": "CCc1cc(O)cc2c(/C=N/NC(=N)NCCc3ccc(Cl)cc3)c[nH]c12", "target": "RXFP3 (Homo sapiens, UniProt Q9NSD7, S159A)", "test system": "HEK-293T", "how to read": "relative to: wild type", "endpoint": "Emax", "value": "76.4 ± 4%"}
{"Structure (SMILES)": "Nc1oc2ccc(F)cc2c(=O)c1C=NOCc1ccc(-c2nc3cc(-c4ccccc4)ccn3c2Nc2ccc(C(=O)O)cc2)cc1 (mixture of isomers)", "target": "TDP1", "test": "enzyme activity, inhibitor", "setting": "100 µM, unpurified compound", "endpoint": "inhibition", "value": "61.9%"}
{"Structure (SMILES)": "COc1cc2nc(C3(C)CC3)nc(N3CCC(c4ccccc4OC)CC3)c2cc1OC", "target": "NTSR1", "test": "β-arrestin recruitment, agonist", "test system": "HEK-293T", "endpoint": "Emax", "value": "94.1%"}
{"Structure (SMILES)": "CC(C)C[C@H](NC(=O)[C@H](C)NC(=O)[C@H](CO)NC(=O)[C@@H]1CCCN1C(=O)[C@@H]1CCCN1C(=O)[C@H](CCC(N)=O)NC(=O)[C@H](CC(C)C)NC(=O)[C@@H](N)[C@@H](C)O)C(=O)N[C@@H](CCCNC(=N)N)C(=O)N[C@@H](CCCNC(=N)N)C(=O)N[C@@H](CCCNC(=N)N)C(=O)N[C@@H](Cc1c[nH]cn1)C(=O)N[C@@H](Cc1ccc(O)cc1)C(=O)N[C@@H](Cc1c[nH]cn1)C(=O)N[C@@H](Cc1c[nH]cn1)C(=O)N[C@@H](C)C(=O)N[C@@H](CC(C)C)C(=O)N1CCC[C@H]1C(=O)N1CCC[C@H]1C(=O)N[C@@H](CO)C(=O)N[C@@H](CCCNC(=N)N)C(=O)O", "target": "C3a anaphylatoxin chemotactic receptor (C3ar1, Mus musculus, UniProt O09047)", "test": "GoA protein dissociation, agonist, NanoBiT", "how to read": "relative to: TLQP-21", "endpoint": "Emax", "value": "37 ± 1.18%"}
{"Structure (SMILES)": "CCCCOc1ccc(C(=O)OCC[N+]2(C)CC=CCC2)cc1 (stereo not drawn)", "target": "CHRM5", "test system": "membranes", "setting": "100 µM, 15 h, together with: carbachol", "how to read": "relative to: control", "endpoint": "Emax", "value": "1.39 ± 0.07 fold"}
{"Structure (SMILES)": "C=CCn1c(=O)c2ccccc2n2c(SCC(=O)OC)nnc12", "target": "CHRM5", "test": "receptor activation, agonist", "setting": "concentration not given, 16 h", "endpoint": "Emax", "value": "120 ± 8%"}
{"note": "A few entries again:"}
{"Structure (SMILES)": "CCc1cc(O)cc2c(/C=N/NC(=N)NCCc3ccc(Cl)cc3)c[nH]c12", "target": "RXFP3 (Homo sapiens, UniProt Q9NSD7, S159A)", "test system": "HEK-293T", "how to read": "relative to: wild type", "endpoint": "Emax", "value": "76.4 ± 4%"}
{"Structure (SMILES)": "C=CCn1c(=O)c2ccccc2n2c(SCC(=O)OC)nnc12", "target": "CHRM5", "test": "receptor activation, agonist", "setting": "concentration not given, 16 h", "endpoint": "Emax", "value": "120 ± 8%"}
